Assay results gathered from unrelated publications.
Compare with care: the assays were run in different laboratories. Numbers after ± are the reported error.

| SMILES | test | system | conditions | how to read | endpoint | value |
| --- | --- | --- | --- | --- | --- | --- |
| CN[C@@](C)(C[18F])C(=O)O | – | SCID mouse SK-OV-3 xenograft, blood | 15 min, post injection | – | tissue uptake | 1.4 ± 0.3 %ID/g |
| NC(=O)OC[C@H](N)Cc1ccccc1 | – | male Swiss mouse, plasma | oral, 10 mg/kg | – | Tmax | 30 min |
| CN1C(=O)CC(=O)N(c2ccccc2)c2cc(Cl)ccc21 | – | mouse wild-type and Scn1a+/−, plasma | intraperitoneal, 10 mg/kg, single dose | – | Tmax | 25 min |
| C#Cc1ccc2c(c1)C(c1ccccn1)=NCc1c(-c3cnco3)ncn1-2.Cl | shake flask | phosphate buffer | 24 h, pH 7, 25 °C | – | solubility | 5400 µg/mL |
| C=C1C[C@@H]2[C@H](CC[C@]3(C)C(=O)CC[C@@H]23)[C@@]2(C)C=CC(=O)C=C12 | LC-MS/MS | postmenopausal breast cancer women, plasma | oral, 25 mg/day, 2 h, CYP3A4*22 carriers, outlier excluded | – | median plasma concentration | 10.5 ng/mL |
| CCCN(CCC)C(=O)Cc1c(-c2ccc(Cl)cc2)nc2ccc(Cl)cn12 | cytochrome c release, ELISA | BALB/cByJ female mouse liver mitochondria | 30 min | relative to: alamethicin maximal release | EC20 | 395 µM |
| CCCCCCCCCCC(=O)O[C@H]1CC[C@H]2[C@@H]3CCC4=CC(=O)CC[C@]4(C)[C@H]3CC[C@]12C | – | human blood | 300 ng/mL, 60 min, 4 °C, NaF 5 mg/mL, K2 oxalate 4 mg/mL | – | testosterone concentration | 435 ng/dL |
| Cc1ncc2n1-c1ccc(Cl)cc1C(c1ccccc1F)=NC2 | – | human, CYP3A5*3/*3 non-expressers | oral, compound alone, geometric mean | – | oral clearance | 105 L/h |
| CN1CC[C@@]23CCCC[C@@H]2[C@@H]1Cc1ccc(O)cc13 | – | Wistar rat, both sexes, plasma | oral, 5 mg/kg DEM, DEM 2 h after pretreatment, added: TCE 400 mg/kg single pretreatment | – | AUC(0-t) | 53.4 ± 23.8 ng·h/mL |
| C[C@@H]1N=C(c2ccccc2F)c2cc(Br)ccc2NC1=O | – | male Wistar rat, plasma | intraperitoneal, 10 mg/kg, 1 h | – | concentration | 1400 nM |
| C[C@H]1CNCCc2ccc(Cl)cc21 | – | male Sprague-Dawley rat, plasma | subcutaneous, pimavanserin 1 + lorcaserin 1 mg/kg, pimavanserin 15 min earlier | – | AUC extrapolated | 7.55 ± 0.52% |
| Cc1ncc2n1-c1ccc(Cl)cc1C(c1ccccc1F)=NC2 | – | healthy men, plasma | oral, 7.5 mg, without amenamevir | – | Cmax arithmetic mean | 35.2 ng/mL |
| COc1ccsc1CNCC[C@@]1(c2ccccn2)CCOC2(CCCC2)C1 | – | healthy human, normal renal function, plasma | intravenous, 1 mg single dose, geometric mean | – | volume of distribution (Vz) | 187 L |
| CCCCCc1cc(O)c2c(c1)OC(C)(C)[C@@H]1CCC(C)=C[C@@H]21 | substrate, measured: 11-hydroxy metabolite | pooled human liver microsomes | 2 min, unbound concentration | – | Km | 1.4 ± 0.2 nM |
| COc1ccc2c(c1)[C@]13CCCC[C@@H]1[C@H](C2)N(C)CC3 | – | Wistar rat, both sexes, plasma | oral, 5 mg/kg, 2 h after pretreatment, added: single TCE 100 mg/kg | – | Tmax | 30.6 ± 17.4 min |
| CN1CCCCC1Cn1cc(C(=O)c2cc([N+](=O)[O-])ccc2I)c2ccccc21 (racemic) | – | Caco-2 | – | – | Papp | 6.2 ×10⁻⁶ cm/s |
| Cc1ncc2n1-c1ccc(Cl)cc1C(c1ccccc1F)=NC2 | – | Sprague Dawley rat, plasma | oral, 15 mg/kg, added: water pre-treatment 7 days | – | t1/2 | 27 ± 4.8 min |
| C=C(C)[C@@H]1CCC(C)=C[C@H]1c1c(O)cc(CCCCC)cc1O | – | healthy human volunteers | dose not given, added: fluconazole | – | subjects reporting adverse events | 19% |
